Measured values pooled from the literature.
A part holds a random share of what one study measured. Positions count from the first letter of the parent shown.

Series 1
Target: Histone acetyltransferase KAT6A, winged helix 2, GST fusion (KAT6A, Homo sapiens, UniProt Q92794, residues 85-181)
Method: protein binding microarray
Form: double-stranded DNA, one strand shown
Sample: in vitro
Concentration: not given
Setting: 8-mer, flanks averaged, mean of 2 arrays, mostly near background
Baseline: not given
Direction: higher = stronger binding
Target sequence (chain): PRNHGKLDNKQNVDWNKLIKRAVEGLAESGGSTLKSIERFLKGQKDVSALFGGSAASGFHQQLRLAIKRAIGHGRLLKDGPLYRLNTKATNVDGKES
| Sequence | E-score |
| --- | --- |
| ATGCACTC | -0.0893 |
| AGCCGAGG | 0.219 |
| CGAGCGAC | 0.0541 |
| ACTTTCAT | -0.0507 |

Series 2
Target: CCND2, cyclin fold, Cln2 fusion (human)
Method: yeast growth competition, sequencing
Sample: yeast
Setting: weak parent motif
Baseline: not given
Direction: higher = stronger binding
Starting sequence: BRCA2 docking peptide (human); PSIKRNLLNEFDR; partner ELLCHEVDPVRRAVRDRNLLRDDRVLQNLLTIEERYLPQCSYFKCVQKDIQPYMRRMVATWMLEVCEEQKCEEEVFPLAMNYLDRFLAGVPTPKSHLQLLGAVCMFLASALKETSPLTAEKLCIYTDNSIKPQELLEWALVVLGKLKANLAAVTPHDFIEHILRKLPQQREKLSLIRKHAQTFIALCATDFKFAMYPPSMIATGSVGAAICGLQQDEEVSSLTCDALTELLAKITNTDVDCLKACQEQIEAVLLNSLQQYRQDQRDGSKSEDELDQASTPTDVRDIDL
| Change | normalised enrichment score |
| --- | --- |
| P1C | 0.367 |
| S2K | 0.498 |
| L7G | 0.0986 |
| S2M | 0.388 |

Series 3
Target: RNA binding protein fox-1 homolog 2, RRM domain, GST-SBP tag (RBFOX2, Homo sapiens, UniProt O43251-10, residues 100-194)
Method: RNA Bind-n-Seq
Form: RNA
Sample: in vitro
Concentration: 365 nM
Setting: natural RNA segment, single round, ends assumed
Baseline: no-protein control
Direction: higher = stronger binding
All sequences stand within: GGGAGUUCUACAGUCCGACGAUC … UGGAAUUCUCGGGUGCCAA
Construct (chain): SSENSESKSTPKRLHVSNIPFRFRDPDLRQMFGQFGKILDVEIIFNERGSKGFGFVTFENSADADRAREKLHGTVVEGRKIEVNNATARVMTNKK
| Sequence | RBNS enrichment (R) |
| --- | --- |
| UUGAACCGAAGAAUUAUGUCUGCCCUACAAAUUGAUUUGUGUAAAAUAAAGUAUAACUAAAUCUCCUAUCAGAUGUCUAAUUUUUACAUGCGAAUGAUUUUCUCCAAGAA | 0.783 |
| CCCUGAGCUUGCUUUCCACAUUCUCCCAGGGUAUGGAGACCUAGACCUGUCUUUGGGGCCAUUAGCAUCUGGGGUUAUAGCAAGAAGAGUGGGGAGCAUGGAACUCCUGG | 0.543 |
| CUCUGAGGCACAGGGCGAGCAGGGACCAAGUAGCAGACGAGUCGAUGCUUCACCUGGCAUCUAGCCACUGCCUCCCACUUCUAGCAGAACUGGGUCAGCAGCCCUGUUCU | 0.264 |
| UCUAUUAAUACAUCUAAAUUUUCUAGUAUAUCCUGACAUUUUCCAUUCCUGCUCUGAAGUCACUUUUAGUUUUGUGUUUUAGUCAGAUAGUACCACUAAUUUUUGUAAUU | 0.453 |
| CACUUUGUGCCAACAGAGGAUGGACGACACCUUUCCCUGUACCCACUGCAGAGGAAGAACCCUGGGCACAGCAGCUUUGUCCUUGGCUACAAACUGUUACAACGUCACAC | 0.456 |
| UUAGCACAGUAUAACUUCAUUUUAGGUGUUGGUGAAAAAGAGAAAAUCAGUGGCACUGUUAAUAUCCGCACAAGAGACAAUAAGGUCCACGGGGAACGCACCAUUUCUGA | 0.891 |

Other studies, line by line
| Substance | target | test | system | conditions | scale | quantity | result |
| --- | --- | --- | --- | --- | --- | --- | --- |
| PhoQ, residues 284 288 289 292 302 303 AGGCYF | PhoP, residues 12 14 15 18 19 NIMAP (Escherichia coli, UniProt P23836) | Sort-seq, item: YFP reporter | E. coli | PhoQ-PhoP variant library, together with: 10 µM Mg2+ | baseline: high Mg2+ state, higher = stronger signaling | fold induction | 2.91 |

A few entries again (series 1):
| Sequence | E-score |
| --- | --- |
| AGCCGAGG | 0.219 |
| CGAGCGAC | 0.0541 |
| ACTTTCAT | -0.0507 |
